Assay results gathered from unrelated publications.
Each line is one published result; not all experiments were run side by side. ± gives the spread as reported.
Cell line: HeLa

Compound	assay	conditions	quantity	value
O=C(NC[C@H](O)CN1CCc2ccccc2C1)c1cc(NC2COC2)ncn1	co-immunoprecipitation, western blot, measured: SNRNP200 with GFP-SART3	10 µM, 3 days	protein interaction	decreased
C[C@@H]1CC[C@@H]([C@](O)(CNCc2ccccc2)COCc2ccc(F)cc2)[C@H](OCc2ccc(F)cc2)C1	cell growth, inhibitor, MTT	72 h	IC50	1.34 µM
CN1CC[C@H](c2c(O)cc(O)c3c(=O)cc(-c4ccccc4Cl)oc23)[C@H](O)C1	RT-qPCR, measured: cyclin A, Cdc2	10 nM, overnight	mRNA level	no effect
C[C@@H]1CC[C@@H]([C@@](C)(O)Cn2cnc3ccccc32)[C@H](OCc2ccccc2)C1	cell growth, inhibitor, MTT	72 h	IC50	6.46 µM
Clc1nc(NCc2ccco2)c2ccccc2n1	splicing reporter, measured: GLA	10 µM, 18 h	GFP/RFP ratio	0.4
CC(=O)N[C@@H](CS)C(=O)O	PI flow cytometry	concentration not given, 48 h	G1 phase cells	50.3 ± 1.1%
C[C@@H]1CC[C@@H]([C@@](O)(CNCc2ccccc2)COCc2ccccc2)[C@H](OCc2ccccc2)C1	cell growth, inhibitor, MTT	72 h	IC50	2.27 µM
COc1ccc(NC(=S)N/N=C/c2cccc3cc4ccccc4nc23)cc1	PI flow cytometry	IC50, 48 h, together with: N-acetylcysteine	G2/M phase cells	13.3 ± 3.7%
Clc1nc(Cl)c2[nH]cnc2n1	splicing reporter, measured: GLA	10 µM, 18 h	GFP/RFP ratio	0.3

A few entries again:
Compound	assay	conditions	quantity	value
Clc1nc(NCc2ccco2)c2ccccc2n1	splicing reporter, measured: GLA	10 µM, 18 h	GFP/RFP ratio	0.4
